Assay results collected from several papers.
Compare with care: the assays were run in different laboratories. “And” joins repeats or separate records; there may be more than shown. ± marks the error that the study gave.
Sequence of UniProt O60285 (whole entry, looked up): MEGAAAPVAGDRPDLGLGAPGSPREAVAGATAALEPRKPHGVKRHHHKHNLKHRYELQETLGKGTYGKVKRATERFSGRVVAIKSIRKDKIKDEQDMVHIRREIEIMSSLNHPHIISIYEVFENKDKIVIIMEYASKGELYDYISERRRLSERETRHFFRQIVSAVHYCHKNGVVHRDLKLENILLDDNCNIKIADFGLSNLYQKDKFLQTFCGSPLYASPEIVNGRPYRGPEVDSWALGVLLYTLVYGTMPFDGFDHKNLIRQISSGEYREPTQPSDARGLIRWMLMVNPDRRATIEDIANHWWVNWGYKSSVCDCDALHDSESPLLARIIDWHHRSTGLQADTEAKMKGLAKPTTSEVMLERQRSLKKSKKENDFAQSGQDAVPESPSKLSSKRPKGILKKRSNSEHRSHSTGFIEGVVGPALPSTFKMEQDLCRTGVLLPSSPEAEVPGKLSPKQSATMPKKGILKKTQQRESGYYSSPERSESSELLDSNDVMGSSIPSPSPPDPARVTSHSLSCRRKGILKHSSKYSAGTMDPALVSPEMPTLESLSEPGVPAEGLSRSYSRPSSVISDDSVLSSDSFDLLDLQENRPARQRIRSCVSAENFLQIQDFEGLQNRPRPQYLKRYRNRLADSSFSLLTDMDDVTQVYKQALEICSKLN
Sequence of UniProt P11802 (whole entry, looked up): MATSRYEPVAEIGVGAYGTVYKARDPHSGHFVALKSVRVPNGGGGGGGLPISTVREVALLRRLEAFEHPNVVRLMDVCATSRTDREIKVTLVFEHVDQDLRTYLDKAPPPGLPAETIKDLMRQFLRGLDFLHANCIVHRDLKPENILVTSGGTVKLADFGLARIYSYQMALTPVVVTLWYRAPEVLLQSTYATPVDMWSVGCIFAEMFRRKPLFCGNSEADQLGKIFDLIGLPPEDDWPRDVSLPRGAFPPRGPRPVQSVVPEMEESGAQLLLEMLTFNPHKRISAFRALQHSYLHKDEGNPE

SMILES = O=C(NCc1cc(F)cc(F)c1)[C@@]1(O)CCN(c2ccc3[nH]ccc3c2)C1=O; test system = sample G PDX mouse; conditions = dose not given, RTV endpoint 500%; endpoint = median survival time; result = 33 days
SMILES = CC(C)C[C@@H]1NC(=O)[C@@H](Cc2c[nH]c3ccccc23)NC(=O)[C@H](CCCNC(=N)N)NC(=O)[C@@H](CCC(=O)O)NC(=O)[C@H](CCC(N)=O)NC(=O)[C@@H](CCC(=O)O)NC(=O)[C@H](CCCNC(=N)N)NC(=O)[C@@H](Cc2c[nH]c3ccccc23)NC1=O; test = Luminex, measured: GM-CSF; test system = LDLr-/- mice, Western diet, liver; conditions = dose not given, 4 weeks; endpoint = cytokine level; result = 86 ± 37 pg/g tissue
SMILES = COc1ccccc1-c1n[nH]c2nc(NC3CCN(C(=O)Cc4ccc(F)cc4F)CC3)ncc12; test = bead binding, competition bead pull-down, measured: LINJ.36.5330; test system = Leishmania donovani extract; conditions = 10 µM; scale = reference: vehicle; endpoint = relative abundance; result = 1.01
SMILES = CCc1nnc(-c2c(OC)cc(-c3cnc4cc(-c5cnn(C)c5)ccn34)cc2OC)o1; test = histomorphometry; test system = male C57BL/6J mouse, tibia; conditions = oral gavage, 40 mg/kg once daily, 3 wk; endpoint = osteoid volume/bone volume; result = 0.381 ± 0.0784%
SMILES = CC(C)C[C@H](NC(=O)[C@H](CC(=O)O)NC(=O)CNC(=O)[C@@H](N)CCCNC(=N)N)C(=O)N[C@@H](C)C(=O)N[C@H](C(=O)N[C@@H](CC(C)C)C(=O)N[C@@H](CCCNC(=N)N)C(=O)N[C@@H](CCC(N)=O)C(=O)N[C@@H](CC(C)C)C(=O)N[C@@H](C)C(=O)N[C@@H](CCC(N)=O)C(=O)N[C@@H](CCC(=O)O)C(=O)N[C@@H](CC(=O)O)C(=O)NCC(=O)N[C@H](C(=O)N[C@H](C(=O)NCC(=O)N[C@H](C(=O)N[C@@H](CCCNC(=N)N)C(=O)NCCOCCOCCOCCOCCOCCOCCOCCOCCOCCOCCOCCOCCC(=O)N[C@@H](CS)C(N)=O)C(C)C)C(C)C)C(C)C)[C@@H](C)O; test = phage binding; test system = panel of 11 cancer lines; conditions = selectivity at least 20; endpoint = number of cell lines; result = 1
SMILES = CS(C)(=O)=Nc1ccc(-c2ccc(-c3nc4cc(O[C@@H]5CO[C@H]6[C@@H]5OC[C@H]6O)[nH]c4cc3F)cc2)cc1; target or system = NUAK1 (Homo sapiens, UniProt O60285); test = enzyme activity, inhibitor; conditions = 10 µM; endpoint = inhibition; result = 8%
SMILES = Cc1ccc(C2=CC(C)(C)Oc3ccc(-c4ccc(-c5ccc(C(=O)O)cc5)[nH]4)cc32)cc1; test system = CD1 mouse male; conditions = dose not given, after end of dosing; endpoint = time to fertility recovery; result = ≤ 6 weeks
SMILES = CCCCCC1=C(NCC)C(=O)C(C/C=C(\C)CCC=C(C)C)=C(O)C1=O; test = RNA-Seq, measured: Irf7 mRNA; test system = mice, AAV9-A53T α-synuclein lesion, lesioned striatum; conditions = oral, dose not given; scale = reference: vehicle-treated lesioned mice; endpoint = log2 fold change; result = 2.12
SMILES = C[C@]12C(=O)[C@](C)(C(c3ccccc3)=C1c1ccccc1)C1(Br)C(=O)N(CCN)C(=O)C12 (stereo partly shown); test = HPLC, measured: CO-release by-product; test system = TRIS-sucrose buffer; conditions = pH 7.4, 37 °C; endpoint = time to 50% conversion; result = 23 min and 19 min and 16 min and 18 min
SMILES = COc1ccccc1-c1n[nH]c2nc(N[C@H]3CC[C@H](NS(=O)(=O)CC(C)C)CC3)ncc12; test = bead binding, competition bead pull-down, measured: LINJ.36.0600; test system = Leishmania donovani extract; conditions = 10 µM; scale = reference: vehicle; endpoint = relative abundance; result = 0.41
SMILES = O=C1NC2(CC2)COc2ncc(F)cc2[C@H]2COCCN2c2ccn3ncc1c3n2; test system = Sprague-Dawley rat, male, thymus; conditions = oral, 2.5 mg/kg/day, 4 weeks, end of treatment; endpoint = organ-to-brain weight ratio; result = 28.7 ± 8.92%
SMILES = CN(C)[C@H]1C[C@@]23CC[C@@]4(O2)C(=CC[C@]2(C)[C@@H](c5ccc6ccncc6c5)CC[C@H]24)C=C3[C@@H](O)[C@@H]1O; target or system = CDK4 (Homo sapiens, UniProt P11802); test = ATP probe labelling, inhibitor, KiNativ profiling; conditions = 1 µM; endpoint = inhibition; result = 2.4%
SMILES = CC(C)(C)C(=O)OCOP(=O)(OCOC(=O)C(C)(C)C)C1CCCN(O)C1=O (stereo not shown); target or system = Malme-3M; endpoint = CC50; result = > 100 µM
SMILES = CN[C@@H]1C[C@H]2O[C@@](C)([C@@H]1OC)n1c3ccccc3c3c4c(c5c6ccccc6n2c5c31)C(=O)NC4; test = annexin V flow cytometry; test system = pancreatic islet cells, mouse; conditions = 1 µM, 24 h; endpoint = necrotic cells; result = 0%
SMILES = O=C(O)c1ccc(-c2nc(-c3ccccc3Cl)c3sccn23)cc1; test system = C57BL/6 mouse 5-FU stress; conditions = dose not given, nadir days 3 and 4; endpoint = platelet recovery; result = 79.4% and 95.4% and 69.1% and 50.3% and 79.6% and 55.2% and 73% and 91.4%
SMILES = Cc1ccc(OCCN(C)C)cc1C(=O)N[C@H](C)c1cc(-c2cccnc2N2CCCC2)nc2ccccc12; target or system = Vero E6; conditions = 7.812 µM; endpoint = viability; result = 95% and 98.2%

Some of these lines once more:
SMILES = O=C(NCc1cc(F)cc(F)c1)[C@@]1(O)CCN(c2ccc3[nH]ccc3c2)C1=O; test system = sample G PDX mouse; conditions = dose not given, RTV endpoint 500%; endpoint = median survival time; result = 33 days
SMILES = CC(C)C[C@@H]1NC(=O)[C@@H](Cc2c[nH]c3ccccc23)NC(=O)[C@H](CCCNC(=N)N)NC(=O)[C@@H](CCC(=O)O)NC(=O)[C@H](CCC(N)=O)NC(=O)[C@@H](CCC(=O)O)NC(=O)[C@H](CCCNC(=N)N)NC(=O)[C@@H](Cc2c[nH]c3ccccc23)NC1=O; test = Luminex, measured: GM-CSF; test system = LDLr-/- mice, Western diet, liver; conditions = dose not given, 4 weeks; endpoint = cytokine level; result = 86 ± 37 pg/g tissue
